Assay results of several laboratories.
Each numbered part is a random draw from the data of one study; scales do not carry over between parts. Changes are numbered by the printed parent chain.

Block 1
Target: PABPC1L2, full length, GST fusion (mouse, UniProt A0ABA7IW68)
Method: RNAcompete
Molecule type: RNA
Sample: in vitro
Tested at: 20 nM
Notes: 7-mer, probes averaged, single round
Reference: mean of 7-mers
Direction: higher = stronger binding
Target sequence (chain): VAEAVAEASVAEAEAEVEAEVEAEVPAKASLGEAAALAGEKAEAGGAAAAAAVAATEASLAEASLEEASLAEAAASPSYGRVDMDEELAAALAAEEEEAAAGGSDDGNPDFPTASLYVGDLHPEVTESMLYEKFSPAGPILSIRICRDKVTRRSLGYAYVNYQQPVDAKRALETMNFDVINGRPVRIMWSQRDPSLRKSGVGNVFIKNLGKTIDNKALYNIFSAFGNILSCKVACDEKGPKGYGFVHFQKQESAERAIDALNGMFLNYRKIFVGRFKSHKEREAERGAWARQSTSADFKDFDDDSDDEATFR
| Sequence | 7-mer Z-score |
| --- | --- |
| UGUAACG | -0.229 |
| AAUAGCC | 0.323 |
| GUAGACU | -0.0482 |
| CAUUGGA | 0.162 |
| CGUUAGU | -0.409 |
| UCGGAAU | -0.173 |
| GAGAGUC | -0.311 |
| AAACCAG | 0.49 |
| CGUUGCG | -0.295 |
| GGAGUAC | -0.162 |
| UCUUGGG | -0.0373 |
| UUCGGAA | -0.0917 |
| UCAUUAU | -0.0808 |
| AUAUUGC | -0.151 |
| GCUAAAG | 0.282 |
| GCUCACC | -0.503 |
| AUUAGAU | -0.219 |
| GAUUCGG | -0.258 |
| GUUUGUA | -0.418 |
| UUGUAUC | -0.307 |
| CGCGUGC | -0.382 |
| UCCUUAC | -0.374 |
| UAAGAAG | -0.00108 |
| ACCGCGA | -0.0772 |
| AGGCACA | 0.242 |

Block 2
Target: CCNB2, cyclin fold, Cln2 fusion (human)
Method: yeast growth competition, sequencing
Sample: yeast
Notes: weak parent motif
Reference: not given
Direction: higher = stronger binding
Parent: SGO1 docking peptide (human); PLAKRALKYTDEK
| Substitution | normalised enrichment score |
| --- | --- |
| T10A | 0.504 |
| E12A | 0.641 |
| R5A | -0.123 |
| L2A | 0.416 |
| K8A | 0.692 |
| L7A | 0.533 |

Block 3
Target: CEBPE, bZIP domain (human)
Method: DHFR protein complementation
Sample: yeast
Notes: single substitutions, most at no-binding floor
Reference: wild-type JUN-FOS pair
Direction: higher = stronger binding
Parent: JUN, bZIP domain (human); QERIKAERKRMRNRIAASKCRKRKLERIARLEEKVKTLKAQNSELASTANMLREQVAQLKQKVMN; partner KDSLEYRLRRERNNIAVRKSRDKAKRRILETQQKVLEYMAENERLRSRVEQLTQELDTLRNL
| Substitution | binding fitness |
| --- | --- |
| K39Q | -1.1 natural log |
| K34A | -1.21 natural log |
| S47V | -0.993 natural log |
| L38C | -1.46 natural log |
| S47P | -1.55 natural log |
| E44H | -1.28 natural log |
| L38V | -1.44 natural log |
| E33K | -1.19 natural log |
| S47E | -0.864 natural log |
| T37Y | -1.12 natural log |
| M51D | -1.11 natural log |
| N42R | -1.38 natural log |
| L52G | -1.51 natural log |
| R30I | -1.25 natural log |
| E32V | -1.35 natural log |
| L31N | -1.42 natural log |
| R30P | -1.37 natural log |
| A46T | -1.02 natural log |

Block 4
Target: RNA binding protein fox-1 homolog 2, RRM domain, GST-SBP tag (RBFOX2, Homo sapiens, UniProt O43251-10, residues 100-194)
Method: RNA Bind-n-Seq
Molecule type: RNA
Sample: in vitro
Tested at: 365 nM
Notes: natural RNA segment, single round, ends assumed
Reference: no-protein control
Direction: higher = stronger binding
All sequences stand within: GGGAGUUCUACAGUCCGACGAUC … UGGAAUUCUCGGGUGCCAA
Construct (chain): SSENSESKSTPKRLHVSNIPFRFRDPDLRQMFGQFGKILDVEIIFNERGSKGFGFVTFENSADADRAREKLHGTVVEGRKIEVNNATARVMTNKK
| Sequence | RBNS enrichment (R) |
| --- | --- |
| AGUUGAAUGCCGGGGAGAAACCUGUCCAAUUUUAGCAGGUUUGAAGGGAGGAUCUUCUUCAGUUGUAGUUUGGAAGGUUCCUUGGUGUGGCUCAUGAAAUCACAGAGCUC | 0.354 |
| CCCUGCCCCUUGCCCAGGGCCAGUGCCAUGGGGAAGGGGCUUGUGGGGAGGGGACCCAUGAAUCCUGACCACUCUUGAACCCAGAAGGAGGACUUUGGGCCAAUUUCGGA | 0.123 |
| UGAGAGUUCGAGGCUCUUUGUUUGGUAUCUUUUGUGUUAAUGUGUCUUGAAUCUGCCAAUCUGUAUGUUAAAACAGCUGACAGAUUGUAAAGCUAUUGCACUGCGUUGCC | 0.906 |
| UAUUAGUUUAGGUCGGGAACUGAGAUAUUGUAAUCAAAUAGUUAACAUCAGGAAGUUAAUUUGGCUGGCAAAAUUCUAGGGAAACUUGGCCAGAAAACUGGUGUUGAAGG | 0.597 |
| AUGGAUAGACUCUAUUUCCUUCCAUAUCUGUUCCUCUGUUCCUUUUCCCACUUUCUGGGUGGCUUUUUGGGUCCACCCAGCCAGGAUGCUGCAGGCCAAGCUGGGUGUGG | 0.312 |
| UAAGGAGACUUCCUGUGGGUUGCCAUGUCGCACGUCCGUUAGAUCUUGAUUUUACAGGUGAGGGUGGUUGCCAAAGGUGAUAAGAAAAGCAGCCAACAGGCUCCCUCUCA | 1.4 |
| UUCCCUAAUGUGUUUUGUAUGUGGUUAUAAAAUUGUAGACUUUUGUGAUUUUGCCAAAGUUGUAGCUAAAUAUUUAUACACUUGUCUUGAAUUUUUUUCAGAUCCACUUA | 0.802 |
| UGAUCAGUCUAAGAUGGGUGGGGACGUCCUGCCACCUGGGGCAGUCACCUGCCCAGAUCCCAGAAGGACCUCCUGAGCGAUGACUCAAGUGUCUCAGUCCACCUGAGCUG | 0.277 |
| CCACCUCCAGCUCUGCUGGCAAUCUCCCUCCCCCAAGGCAAACUGGCCAGCAGGAGUGCUUCACAGCAGUCCUGCUUAGUACCGUUGAAGAGACUCAGUUUACCUUAGUG | 0.254 |
| UGGCUUCCUAGAGUUUGGACAUAUUCCAGGCUAAAUGCUUUUACUCAAGACUACAGAAAGGUUUGAAGUAGUGUGUGCAUGGCAUGCACGUAUGUAAGUAAUCUGGGGAA | 0.653 |
| GGCCCAUAGGAGCAGUCCCGCUGCACAAUGGUAGGCAUAGGCCAUGGCACUGGACUGCCUCUAAGGACUGCUAAAAAGAAUAUUUUUUUGUGGUGUCAGAACUGGAAAAA | 0.451 |
| ACCAUACCUUUUUGCACUAUGGGCACUAACCACCCUGAAACUUCCUGCGGUAGCUCCCUCCCUUCAGAGUUACAUCAUUAUCCUGACUCUGUGUAGGUAAAUUUCCGUGA | 0.976 |

Block 5
Target: Histone acetyltransferase KAT6A, winged helix 2, GST fusion (KAT6A, Homo sapiens, UniProt Q92794, residues 85-181)
Method: protein binding microarray
Molecule type: double-stranded DNA, one strand shown
Sample: in vitro
Tested at: not given
Notes: 8-mer, flanks averaged, mean of 2 arrays, mostly near background
Reference: not given
Direction: higher = stronger binding
Construct (chain): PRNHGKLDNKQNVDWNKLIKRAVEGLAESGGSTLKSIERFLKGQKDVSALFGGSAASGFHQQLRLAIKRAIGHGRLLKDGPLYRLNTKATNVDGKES
| Sequence | E-score |
| --- | --- |
| ATCTCGTA | -0.0757 |
| ACCTGCGC | 0.0637 |
| CCCACAGG | 0.0695 |
| GCACCGGA | 0.165 |
| ATGACTTC | -0.171 |
| GCATGGAA | 0.0153 |
| CAGGCCCC | -0.0908 |
| GCGGCAGA | 0.114 |
| ATCCGCAC | -0.0452 |
| AGATCAAA | -0.00508 |
| CCCTTGGA | 0.119 |
| ACCAATGC | 0.0372 |
| CATATTAC | -0.0257 |
| ATTAACGA | -0.00835 |
| AAAATGAG | 0.0346 |
| TAACGTAA | -0.175 |
| GGATAATA | 0.0596 |
| ATCTTCCA | 0.00654 |
| CGAGTTTA | -0.119 |
| GACAATGA | -0.158 |
| TCTGAGCA | 0.0129 |
| GAGTCCTA | -0.0438 |
| AACATGAC | -0.136 |
| AGATTTTA | -0.0645 |
| AGATGGCG | 0.00768 |

Block 6
Target: ABI1, truncated, D143A, DHFR fusion (Arabidopsis thaliana)
Method: DHFR PCA, deep sequencing
Sample: yeast
Notes: methotrexate growth selection, single substitutions
With: (+)-ABA 1.4 µM
Reference: wild-type fitted maximum
Direction: higher = stronger binding
Parent: PYL1, truncated, DHFR fusion (Arabidopsis thaliana); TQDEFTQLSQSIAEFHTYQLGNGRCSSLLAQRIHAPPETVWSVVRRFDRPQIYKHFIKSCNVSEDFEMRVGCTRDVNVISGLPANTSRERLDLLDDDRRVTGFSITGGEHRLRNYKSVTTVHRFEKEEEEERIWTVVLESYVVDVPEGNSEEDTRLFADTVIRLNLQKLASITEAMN; partner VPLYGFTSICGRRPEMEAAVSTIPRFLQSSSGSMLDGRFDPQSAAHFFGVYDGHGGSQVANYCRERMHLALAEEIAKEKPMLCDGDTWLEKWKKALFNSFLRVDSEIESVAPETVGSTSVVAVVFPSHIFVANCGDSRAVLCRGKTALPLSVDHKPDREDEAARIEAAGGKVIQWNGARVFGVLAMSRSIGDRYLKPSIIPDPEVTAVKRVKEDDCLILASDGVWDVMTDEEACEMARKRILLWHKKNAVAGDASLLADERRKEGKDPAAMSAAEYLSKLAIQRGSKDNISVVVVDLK
| Substitution | relative binding score [%] |
| --- | --- |
| G107A | 23.2 |
| E38Y | -3.76 |
| S87W | 10.6 |
| V78D | -8.1 |
| L82N | -1.92 |
| R69P | 1.66 |
| N85H | 61.6 |
| R155L | 20.2 |
| E147F | 31.9 |
| F47T | -5.05 |
| R99E | 10.1 |
| S59F | -1.7 |
| T86Y | 64.2 |
| L94I | 40.6 |
| R49Q | 67.7 |
| N61T | 75.3 |
| Q7R | 48.7 |

Block 7
Target: Prothrombin, mature alpha-thrombin (F2, Homo sapiens, UniProt P00734)
Method: aptamer microarray, sandwich
Molecule type: DNA with 2'F-ANA
Sample: in vitro
Tested at: 200 nM
Notes: whole 15-mer aptamer, many near background
With: Cy3 exosite-II aptamer, 400 nM
Direction: higher = stronger binding
Sequence: GGTTGGTGTGGTTGG
| Modification | mean fluorescence intensity [a.u.] |
| --- | --- |
| 2'F-ANA at 2 5 6 8 11 12 13 14 15 | 66 |
| 2'F-ANA at 1 2 3 4 7 8 9 10 11 12 14 | 52.5 |
| 2'F-ANA at 3 10 11 15 | 599 |
| 2'F-ANA at 1 2 5 8 9 10 11 12 13 | 46.3 |
| 2'F-ANA at 5 6 11 12 | 125 |
| 2'F-ANA at 3 7 8 9 10 11 12 13 | 607 |
| 2'F-ANA at 2 14 15 | 169 |
| 2'F-ANA at 2 3 4 5 7 8 9 10 14 15 | 72.9 |
| 2'F-ANA at 1 5 8 10 12 14 15 | 51.3 |
| 2'F-ANA at 1 2 3 4 6 9 12 13 15 | 185 |
| 2'F-ANA at 1 5 8 9 10 11 12 15 | 49.6 |
| 2'F-ANA at 2 3 4 5 6 7 9 10 12 15 | 147 |
| 2'F-ANA at 3 5 7 8 9 15 | 164 |
| 2'F-ANA at 1 2 3 4 5 7 8 9 10 13 15 | 47.8 |
| 2'F-ANA at 1 3 4 5 6 10 13 15 | 44.3 |
| 2'F-ANA at 1 2 5 6 7 8 9 14 | 50.9 |
| 2'F-ANA at 3 5 6 11 13 | 91.5 |
| 2'F-ANA at 2 3 7 9 13 14 | 399 |
| 2'F-ANA at 1 6 7 9 10 12 13 15 | 64.6 |
| 2'F-ANA at 7 8 10 12 13 15 | 217 |
| 2'F-ANA at 1 3 4 5 14 | 49.4 |
| 2'F-ANA at 3 6 10 12 | 633 |
| 2'F-ANA at 1 2 3 6 8 10 11 12 13 14 15 | 71.2 |

Repeated from above (block 1):
| Sequence | 7-mer Z-score |
| --- | --- |
| GUAGACU | -0.0482 |
| CAUUGGA | 0.162 |
| CGUUAGU | -0.409 |
| UCGGAAU | -0.173 |
| GAGAGUC | -0.311 |
| AAACCAG | 0.49 |
| CGUUGCG | -0.295 |
| GGAGUAC | -0.162 |
| UCUUGGG | -0.0373 |
| UUCGGAA | -0.0917 |
| UCAUUAU | -0.0808 |
| AUAUUGC | -0.151 |
| GCUAAAG | 0.282 |
| GCUCACC | -0.503 |
| AUUAGAU | -0.219 |
